Measured values collected from several papers.
Each numbered part is a random draw from the data of one study; scales do not carry over between parts. Substitutions count along the parent as printed.

Set 1
Target: RING finger protein unkempt homolog, zinc fingers 1-6, GST-SBP tag (UNK, Homo sapiens, UniProt Q9C0B0, residues 30-357)
Method: RNA Bind-n-Seq
Form: RNA
Matrix: in vitro
Tested at: not given
Setting: RNA with constant flanks, human and mouse sites, ends assumed
Reference: input RNA pool
Reading: higher = stronger binding
Residues (chain): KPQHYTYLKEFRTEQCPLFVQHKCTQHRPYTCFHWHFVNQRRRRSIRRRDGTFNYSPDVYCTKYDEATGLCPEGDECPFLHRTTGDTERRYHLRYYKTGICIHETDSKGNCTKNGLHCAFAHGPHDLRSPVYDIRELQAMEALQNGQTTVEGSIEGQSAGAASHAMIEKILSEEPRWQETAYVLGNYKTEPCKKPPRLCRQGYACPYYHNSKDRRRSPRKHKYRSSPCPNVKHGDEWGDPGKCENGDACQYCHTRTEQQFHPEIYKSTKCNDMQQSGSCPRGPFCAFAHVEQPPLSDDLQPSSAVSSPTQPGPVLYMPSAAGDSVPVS
Sequence	bound/input enrichment [ratio]
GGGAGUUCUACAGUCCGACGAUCUUCCUGUCACACCCAGUCGAGUGCAGAGGCCGAAGCAUCCCUCACACACGACCUGCAGGGCUUUUCCUGCACCGCGGAGCCGCGCAGCCUCCACGCUGCAAACUCUUAAAAGCGCCGAACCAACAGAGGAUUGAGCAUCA	0.168
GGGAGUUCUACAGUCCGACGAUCGACUCAGUUUCUAAGGGAAGACAGAAUUCAACUUUGGAAACCUCCAUAUACUAAAGAAAAUAAGGAAGUUGGUUUGGCCGUAAAGGACCUUGCUAAGAAGUACUCUGAGCGGCUGGAGUGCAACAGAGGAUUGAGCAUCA	0.878
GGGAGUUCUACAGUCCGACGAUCAUAGUGUUGCGAGAUAGUCUUCAUCAGCCACAGUAUGUAGAAAAGUUAGAGAAGAUUCUUCGUUUUGUCAUCAAAGAAAAAGCUCUGACCUUACAGGAUCUUGAUAAUAUCUGGGCAGCACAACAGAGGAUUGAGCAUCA	0.132
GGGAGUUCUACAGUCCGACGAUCAAUUCAUCUCUUUUUAUAUGUCCGAAAACGGCCGAGCUUUUCAGCAGUGGCUGGCUUGGCCGACUCUGCCGUCCCUGGCAGAGCGUUGUUACUGUUGCUCCUUAGCAGCUGCUGCCUGGUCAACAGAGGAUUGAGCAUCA	0.855
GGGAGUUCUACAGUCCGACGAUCUUGGAAGAAGUCAAAGUAAGCAGAGAGAUGGACAGGGAAACACUUAUAGAUGUGGCCAGAACAUCUCUUCGUACUAAAGUUCAUGCUGAACUUGCAGAUGUCUUAACAGAGGCUGUAGUGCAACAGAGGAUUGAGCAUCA	0.247
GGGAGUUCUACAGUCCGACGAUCCGCCUCGCCCGCCGUCCACACCCCAGCGGCCCUGACGCUGUCCCCUCCGCGACCCUCGCCUCUGGAAAAAGUGACAGGCAAGGCCACGCCCCCGCGAGGGCCGGCCUGGAGCCCGCAGCCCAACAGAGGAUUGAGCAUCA	0.187
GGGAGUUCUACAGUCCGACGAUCAAAAGAUCUAAUCCUCAAGUUGGUGUAGCCUUCCCUUACAUUAAGGACGCCUAUGAGUGUUUAGUUUAUGUGCAGCUGCCUUUCAUGGAAGACUUGCGGCAAUACAUGUUUUCCUCGCUGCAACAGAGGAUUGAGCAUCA	0.405
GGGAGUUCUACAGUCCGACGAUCAGUGCGCUUAGCACCAGCACUGGCUUUGGAGGCAUACUCAGCACCAGUGUCUGUUUUGGUGGCUCUCCCAGCUCCAGUGGUAGCUUUGGUGGUACACUCAGUACCAGUAUCUGCUUCGGUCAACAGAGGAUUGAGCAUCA	0.0699

Set 2
Target: CCNE2, cyclin fold, Cln2 fusion (human)
Method: yeast growth competition, sequencing
Matrix: yeast
Setting: weak parent motif
Reference: not given
Reading: higher = stronger binding
Starting sequence: SAMHD1 docking peptide (human); ASKSRVQLFKDDP; partner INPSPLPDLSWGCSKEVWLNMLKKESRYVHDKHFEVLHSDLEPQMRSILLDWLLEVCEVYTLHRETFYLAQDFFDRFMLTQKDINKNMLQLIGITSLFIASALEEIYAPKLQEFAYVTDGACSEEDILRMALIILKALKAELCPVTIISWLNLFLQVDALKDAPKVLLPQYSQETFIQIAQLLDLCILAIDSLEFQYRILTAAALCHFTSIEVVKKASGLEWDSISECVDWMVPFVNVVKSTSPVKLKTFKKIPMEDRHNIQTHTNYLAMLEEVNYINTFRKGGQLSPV
Change	normalised enrichment score
V6T	0.0613
S2I	0.646
L8M	0.104
F9Y	0.208
L8D	-0.000719
F9I	0.304
D11N	0.479
L8W	0.408
K3G	-0.118

Set 3
Target: Centromere-binding protein 1, full length, N-terminal tag (CBF1, Saccharomyces cerevisiae, UniProt P17106, residues 1-351)
UniProt P17106, sequence (whole entry, looked up): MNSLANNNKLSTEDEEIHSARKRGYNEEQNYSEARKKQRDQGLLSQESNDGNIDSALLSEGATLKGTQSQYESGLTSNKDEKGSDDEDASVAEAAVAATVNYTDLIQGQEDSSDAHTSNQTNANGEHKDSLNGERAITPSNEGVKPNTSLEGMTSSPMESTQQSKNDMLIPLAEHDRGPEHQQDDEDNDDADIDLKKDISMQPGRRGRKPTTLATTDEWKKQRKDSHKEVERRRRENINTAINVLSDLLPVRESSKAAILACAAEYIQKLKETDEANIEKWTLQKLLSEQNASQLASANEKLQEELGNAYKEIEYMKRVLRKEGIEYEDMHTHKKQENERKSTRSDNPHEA
Method: protein-binding microarray
Form: double-stranded DNA, one strand shown
Matrix: in vitro
Tested at: 0.8 µM
Setting: whole 60-bp probe, no competitor
Reading: higher = stronger binding
Sequence	fluorescence intensity
CTATCGAGCTCAAGGTGAGTCACGATGCAGAACTTCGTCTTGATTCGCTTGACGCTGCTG	1080 a.u.
GAATACAAGCCGTGTGGGGTGATTACGCCGTACTAGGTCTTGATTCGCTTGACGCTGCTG	527 a.u.
CTAGTTATCGTATGTCACCTGGCACTCATTAGTTTCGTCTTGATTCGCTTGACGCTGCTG	843 a.u.
GAAAAGGGTAAGAGTGACATCATAATTAGGGGTTAGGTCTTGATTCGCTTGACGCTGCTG	551 a.u.
CTAATATTTCATTACATGGTGATGCTTTCTTTTTTCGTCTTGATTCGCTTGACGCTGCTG	495 a.u.
CTACCGTGAGCGACTCATGACGCGCGTGTGCTATTCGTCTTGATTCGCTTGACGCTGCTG	578 a.u.
GAAATATATCATGCACACATCAGGTAGAAGATATAGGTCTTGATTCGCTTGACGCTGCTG	696 a.u.
CTAATAATATAAACAAACGTGCGTATGCAAGACTTCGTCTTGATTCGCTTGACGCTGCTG	613 a.u.
CCTAACTACTATAAATACGTCACATAGCTTCGTACAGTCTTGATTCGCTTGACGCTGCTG	577 a.u.
GAAGATGCCCACACGCACGTTTGGATTATTACCTAGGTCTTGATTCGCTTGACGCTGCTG	545 a.u.
GAAAGATAATTTTGTCACGTTTGTTCTGGTGGGTAGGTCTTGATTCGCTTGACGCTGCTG	1400 a.u.
CCTAACTACTATAATATGCACGTATAGCTTCGTACAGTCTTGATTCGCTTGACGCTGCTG	534 a.u.
CCTAACTACTATATCAACTGAACATAGCTTCGTACAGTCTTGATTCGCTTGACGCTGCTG	550 a.u.
CTATAACATTAAGGTCATGTGTTGATAGCAGGTTTCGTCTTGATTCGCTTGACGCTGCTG	2020 a.u.
CTAAGTCCATCGCACGGCGTGGTGGTGATAAAGTTCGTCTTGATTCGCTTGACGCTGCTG	557 a.u.

Single results of other studies
Molecule	target	assay	system	setting	how to read	quantity	value
PhoQ, residues 284 288 289 292 302 303 QWGLFV	PhoP, residues 12 14 15 18 19 TPLRH (Escherichia coli, UniProt P23836)	Sort-seq, refers to: YFP reporter	E. coli	PhoQ-PhoP variant library, added: 10 µM Mg2+	reference: high Mg2+ state, higher = stronger signaling	fold induction	0.972

A few entries again (set 1):
Sequence	bound/input enrichment [ratio]
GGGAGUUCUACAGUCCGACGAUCGACUCAGUUUCUAAGGGAAGACAGAAUUCAACUUUGGAAACCUCCAUAUACUAAAGAAAAUAAGGAAGUUGGUUUGGCCGUAAAGGACCUUGCUAAGAAGUACUCUGAGCGGCUGGAGUGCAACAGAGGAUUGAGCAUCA	0.878
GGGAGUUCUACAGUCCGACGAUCUUGGAAGAAGUCAAAGUAAGCAGAGAGAUGGACAGGGAAACACUUAUAGAUGUGGCCAGAACAUCUCUUCGUACUAAAGUUCAUGCUGAACUUGCAGAUGUCUUAACAGAGGCUGUAGUGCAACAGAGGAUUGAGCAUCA	0.247
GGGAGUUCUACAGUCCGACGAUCAGUGCGCUUAGCACCAGCACUGGCUUUGGAGGCAUACUCAGCACCAGUGUCUGUUUUGGUGGCUCUCCCAGCUCCAGUGGUAGCUUUGGUGGUACACUCAGUACCAGUAUCUGCUUCGGUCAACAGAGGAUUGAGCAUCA	0.0699
